Results gathered from unrelated publications.
Lines come from different studies, so protocols differ. Several values in a cell are separate wells, animals, samples, runs or records. Numbers after ± are the reported error. Values after ≈ are worked out from the molar mass of the structure shown.

CC(C)CC(C(=O)N1CC2(CC1C#N)C(=O)Nc1ccccc12)N(C)C(=O)c1cc2c(F)cc(F)c(F)c2[nH]1 (stereo not shown) — inhibition (Human coronavirus 229E; cytopathic effect; MRC5; 0.15 µM): 98%
O=C1NC2(CC2)COc2ncc(F)cc2[C@H]2COCCN2c2ccn3ncc1c3n2 — organ-to-body weight ratio (Sprague-Dawley rat, female, heart; oral, 20 mg/kg/day, 4 weeks dosing, end of recovery): 0.395 ± 0.026%
NC[C@]1(CC(=O)O)CC[C@@H]([18F])CC1 — VT change (PET kinetic modelling; rhesus monkey, whole brain; dose not given, with: gabapentin pre-injection; baseline: baseline): 11%
CCc1nc2ccc(OC(F)(F)F)cn2c1C(=O)NCc1ccc2oc(-c3ccc(OC(F)(F)F)cc3)nc2c1 — MIC (Mycolicibacterium smegmatis; 72 h): > 50 µM
Cc1cc(Oc2nc(N3CC[C@@H](c4ccncc4)C3)ncc2F)[nH]n1 — normalised growth (Mycobacterium tuberculosis; OD; H37Rv PurF CRISPRi knockdown; 0.5 µM, with: anhydrotetracycline low): 1% and 3% and 0%
O=C(O)c1ccc(-c2nc(-c3ccccc3Cl)c3sccn23)cc1 — platelet count change (C57BL/6 mice; dose not given, day 4, basal hematopoiesis): 106% and 93.9% and 90.7% and 132%
COc1ccccc1NC(=O)OC1C(C)C(OC)C=COC2(C)Oc3c(C)c(O)c4c(c3C2=O)C2=NC3(CCN(CC(C)C)CC3)NC2=C(NC(=O)C(C)=CC=CC(C)C(O)C(C)C(O)C1C)C4=O (stereo not shown) — MIC (Mycobacteroides abscessus; broth microdilution; ATCC 19977): 0.015 µM (≈ 0.0143 µg/mL)
CC[C@H](C)[C@H](NC(=O)[C@H](CC(=O)O)NC(=O)[C@@H](NC(=O)[C@@H]1CCCN1C(=O)[C@@H](N)CCCNC(=N)N)[C@@H](C)O)C(=O)N[C@@H](CCCCN)C(=O)N[C@H]1CSSC[C@@H]2NC(=O)[C@H](CCCNC(=N)N)NC(=O)CNC(=O)[C@H](CC(N)=O)NC(=O)[C@H]([C@@H](C)O)NC(=O)[C@H](CCCCN)NC(=O)CNC(=O)[C@H](Cc3ccccc3)NC(=O)[C@H](CCCNC(=N)N)NC(=O)[C@H](CO)NC(=O)[C@H](CCCCNC(=O)OCc3cc(OC)c(OC)cc3[N+](=O)[O-])NC(=O)[C@@H]3CSSC[C@@H](C(=O)N[C@@H](Cc4ccccc4)C(=O)O)NC(=O)[C@H](CC(=O)O)NC(=O)[C@H](CSSC[C@H](NC(=O)[C@H](CCC(N)=O)NC(=O)[C@H](Cc4ccc(O)cc4)NC(=O)[C@H](CO)NC(=O)[C@H](CCC(=O)O)NC(=O)[C@H](CO)NC1=O)C(=O)N[C@@H](Cc1ccccc1)C(=O)N1CCC[C@H]1C(=O)N[C@@H](C(C)C)C(=O)N3)NC(=O)[C@H](Cc1ccccc1)NC(=O)CNC(=O)[C@H](CC(N)=O)NC(=O)[C@H](C(C)C)NC2=O — APD90 (human iPS-derived cardiomyocytes; 200 nM, no illumination, 1000 ms cycle): 279 ± 47.2 ms
CC(C)(C)C(=O)OCOP(=O)(OCOC(=O)C(C)(C)C)C1CCCN(O)C1=O (stereo not shown) — log LC50 (HOP-62): > -4 log M
Cc1cc(C(=O)Nc2nc3cccc(C)c3n2[C@H]2CCCCN(C(=O)/C=C/CN(C)C)C2)ccn1 — EC50 fold shift (Trypanosoma brucei; cell growth, Alamar Blue; 2T1 overexpressing Tb927.10.2040; baseline: parental 2T1): 0.57 fold and 0.53 fold
CC(C)C[C@@H]1NC(=O)[C@@H]2CSSC[C@@H](C(=O)NCC(=O)O)NC(=O)[C@H](Cc3ccccc3)NC(=O)CNC(=O)[C@H](CC(N)=O)NC(=O)[C@@H]3CCCN3C(=O)CNC(=O)[C@@H]3CSSC[C@H](NC(=O)[C@H](CCCNC(=N)N)NC(=O)[C@H](CC(N)=O)NC(=O)[C@H](Cc4c[nH]cn4)NC(=O)[C@H](CCCCN)NC(=O)[C@H](C)NC(=O)CNC(=O)[C@H](Cc4c[nH]cn4)NC(=O)[C@H](C)NC(=O)[C@H](CO)NC(=O)[C@H](CCC(N)=O)NC(=O)[C@@H](NC(=O)CN)CSSC[C@H](NC(=O)CNC(=O)[C@H](C)NC1=O)C(=O)N[C@@H](C(C)C)C(=O)N3)C(=O)N[C@@H](CCCCN)C(=O)N[C@@H](CCC(N)=O)C(=O)N[C@@H](CC(=O)O)C(=O)N[C@@H](CO)C(=O)N[C@@H](CC(=O)O)C(=O)N2 — IC50 (HEK293, Wnt1-transfected; Wnt signalling): > 100 µM
CCc1nc2ccc(Br)cn2c1C(=O)NCc1ccc2oc(-c3ccc(OC(F)(F)F)cc3)nc2c1 — MIC (Mycolicibacterium smegmatis; 72 h): > 50 µM
Cc1ccc(OCCN(C)C)cc1C(=O)N[C@H](C)c1cc(-c2ccnn2C)nc2ccccc12 — viability (Vero E6; 15.62 µM): 91.2% and 92.3%
CC[C@@H]1CN2CCc3c([nH]c4cccc(OC)c34)[C@@H]2C[C@@H]1/C(=C\OC)C(=O)OC — IC50 (rabbit anti-mitragynine polyclonal IgG; antigen binding, competitor, competitive indirect ELISA; 5% methanol; 60 min antibody-standard, 30 min antibody-antigen incubation): 0.5 µg/mL and 0.6 µg/mL
CC(C)C[C@H](NC(=O)[C@H](CC(=O)O)NC(=O)[C@@H](NC(=O)[C@H](CCC(=O)O)NC(=O)[C@H](CCCCN)NC(=O)[C@H](Cc1ccc(O)cc1)NC(=O)[C@H](CCCCN)NC(=O)[C@H](Cc1c[nH]cn1)NC(=O)CNC(=O)CN)[C@@H](C)O)C(N)=O — initial cleavage rate (HCV IRES RNA; MALDI-TOF mass spectrometry, measured: 5'-phosphate products; hepatitis C virus): 6.1 ± 1.4 %/min
COc1ccccc1-c1n[nH]c2nc(NC3CCN(C(=O)Cc4ccc(F)cc4F)CC3)ncc12 — relative abundance (bead binding, competition bead pull-down, measured: LINJ.08.1220; Leishmania donovani extract; 10 µM; baseline: vehicle): 0.96
Cc1ccc(N(C)CCN2CCOCC2)cc1C(=O)N[C@H](C)c1cc(-c2cnn(C)c2)nc2ccccc12 — viability (Vero E6; 125 µM): 66.9% and 79.8% and 53.5%
COc1ccccc1-c1n[nH]c2nc(N[C@H]3CC[C@H](NS(=O)(=O)CC(C)C)CC3)ncc12 — relative abundance (bead binding, competition bead pull-down, measured: LINJ.24.1500; Leishmania donovani extract; 10 µM; baseline: vehicle): 0.31
COc1ccccc1-c1ccncc1C(=O)Nc1nnc(OCc2ccc(Cl)cc2)s1 — colony survival (DLD-1 parental (BRCA2 WT); 0.06 µM, average of 3 runs; baseline: untreated): 96.7%

A few entries again:
CC(C)(C)C(=O)OCOP(=O)(OCOC(=O)C(C)(C)C)C1CCCN(O)C1=O (stereo not shown) — log LC50 (HOP-62): > -4 log M
Cc1cc(C(=O)Nc2nc3cccc(C)c3n2[C@H]2CCCCN(C(=O)/C=C/CN(C)C)C2)ccn1 — EC50 fold shift (Trypanosoma brucei; cell growth, Alamar Blue; 2T1 overexpressing Tb927.10.2040; baseline: parental 2T1): 0.57 fold and 0.53 fold
CC(C)C[C@@H]1NC(=O)[C@@H]2CSSC[C@@H](C(=O)NCC(=O)O)NC(=O)[C@H](Cc3ccccc3)NC(=O)CNC(=O)[C@H](CC(N)=O)NC(=O)[C@@H]3CCCN3C(=O)CNC(=O)[C@@H]3CSSC[C@H](NC(=O)[C@H](CCCNC(=N)N)NC(=O)[C@H](CC(N)=O)NC(=O)[C@H](Cc4c[nH]cn4)NC(=O)[C@H](CCCCN)NC(=O)[C@H](C)NC(=O)CNC(=O)[C@H](Cc4c[nH]cn4)NC(=O)[C@H](C)NC(=O)[C@H](CO)NC(=O)[C@H](CCC(N)=O)NC(=O)[C@@H](NC(=O)CN)CSSC[C@H](NC(=O)CNC(=O)[C@H](C)NC1=O)C(=O)N[C@@H](C(C)C)C(=O)N3)C(=O)N[C@@H](CCCCN)C(=O)N[C@@H](CCC(N)=O)C(=O)N[C@@H](CC(=O)O)C(=O)N[C@@H](CO)C(=O)N[C@@H](CC(=O)O)C(=O)N2 — IC50 (HEK293, Wnt1-transfected; Wnt signalling): > 100 µM
